Results collected from several papers.
Each numbered part is a random draw from the data of one study; scales do not carry over between parts. Substitutions count along the parent as printed.

Set 1 — method: protein binding microarray; form: double-stranded DNA, one strand shown; medium: in vitro; tested at: not given; relative to: not given; reading: higher = stronger binding
Target: Histone acetyltransferase KAT6A, winged helix 1, GST fusion (KAT6A, Homo sapiens, UniProt Q92794, residues 1-85)
Setting: 8-mer, flanks averaged, mean of 2 arrays, mostly near background
Target sequence (chain): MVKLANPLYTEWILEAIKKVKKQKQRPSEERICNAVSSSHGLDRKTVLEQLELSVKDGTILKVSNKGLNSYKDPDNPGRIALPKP
| Strand | E-score |
| --- | --- |
| ACACACCT | -0.0718 |
| ACGGTATG | 0.119 |
| ATAGGCAA | -0.183 |
| TACACATA | -0.0444 |
| TGTACTAA | -0.0567 |
| ACTGCTCT | -0.0376 |
| ATGGGGAG | -0.223 |
| CCATACAC | -0.0624 |
| CTAGAATC | -0.311 |
| GGCGTCTA | 0.138 |
| GCGCTCAC | 0.202 |
| TGACCTCA | -0.232 |
| CGACATCC | 0.166 |
| ACTTCTAG | -0.0342 |
| ATTAGACA | -0.267 |
| ACGGCACG | 0.323 |
| AAACCGAG | 0.0166 |
| GCAAGGCC | 0.179 |
| CAGCGCTA | 0.276 |
| ATTTTTCG | -0.0756 |
| ATCTGGTC | -0.203 |
| ACCTTACG | 0.145 |
| CACCCATC | -0.0823 |
| AGATTCCA | -0.203 |
| CCTCTGAC | -0.109 |

Set 2 — method: DHFR PCA, deep sequencing; medium: yeast; with: (+)-ABA 0.11 µM; relative to: wild-type fitted maximum; reading: higher = stronger binding
Target: ABI1, truncated, D143A, DHFR fusion (Arabidopsis thaliana)
Setting: methotrexate growth selection, single substitutions
Starting sequence: PYL1, truncated, DHFR fusion (Arabidopsis thaliana); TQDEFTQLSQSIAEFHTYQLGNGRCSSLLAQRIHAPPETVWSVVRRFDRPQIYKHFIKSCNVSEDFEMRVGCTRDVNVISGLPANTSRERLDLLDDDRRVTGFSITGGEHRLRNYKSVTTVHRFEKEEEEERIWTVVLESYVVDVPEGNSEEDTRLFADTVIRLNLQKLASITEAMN; partner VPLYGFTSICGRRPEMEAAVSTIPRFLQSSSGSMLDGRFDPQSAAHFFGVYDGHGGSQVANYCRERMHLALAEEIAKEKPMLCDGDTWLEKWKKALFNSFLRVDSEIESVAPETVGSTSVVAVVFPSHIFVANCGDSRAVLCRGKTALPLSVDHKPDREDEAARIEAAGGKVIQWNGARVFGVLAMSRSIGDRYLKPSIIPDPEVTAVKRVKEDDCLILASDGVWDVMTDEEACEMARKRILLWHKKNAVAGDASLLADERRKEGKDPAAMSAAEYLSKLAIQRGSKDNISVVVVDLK
| Variant | relative binding score [%] |
| --- | --- |
| R69C | 18.9 |
| R49N | 6.49 |
| R163F | -19.1 |
| N149Y | 25.5 |
| A84N | 35.5 |
| H110E | 50 |
| V121K | -2.51 |
| I162N | 5.26 |
| V70W | -5.77 |
| K126H | 44.6 |
| K168C | 10.7 |
| P37N | -3.16 |
| T173M | 4.36 |
| I33S | 2.04 |
| L156S | 6.87 |

Set 3 — target: CCND3, cyclin fold, Cln2 fusion (human); method: yeast growth competition, sequencing; medium: yeast; setting: strong parent motif; relative to: not given; reading: higher = stronger binding
Starting sequence: INSM1 docking peptide (human); PKAIRKLHFEDEV
| Variant | normalised enrichment score |
| --- | --- |
| E12C | 1.02 |
| I4K | 0.645 |
| I4F | 0.329 |
| I4N | 0.714 |
| F9G | 0.415 |
| E12S | 0.98 |
| A3W | -0.588 |
| E12G | 0.61 |
| A3Y | 0.0844 |
| K6Y | 0.669 |
| H8C | 1.77 |
| F9N | -0.0671 |
| K6F | 0.461 |
| F9P | 0.0492 |
| E10R | 0.386 |
| K6R | 0.971 |
| E10I | 0.301 |
| R5T | 0.359 |
| R5S | 0.183 |
| K2V | 0.55 |
| F9A | -0.437 |
| H8D | 1.38 |
| L7G | 0.18 |
| E12P | 0.802 |
| K6N | 0.688 |

Set 4 — method: universal PBM; form: double-stranded DNA, one strand shown; medium: in vitro; tested at: not given; reading: higher = stronger binding
Target: Sal-like protein 4, full length isoform B (SALL4, Homo sapiens, UniProt Q9UJQ4-2, residues 1-616)
Setting: 8-mer, flanks averaged, mean of replicates
Construct (chain): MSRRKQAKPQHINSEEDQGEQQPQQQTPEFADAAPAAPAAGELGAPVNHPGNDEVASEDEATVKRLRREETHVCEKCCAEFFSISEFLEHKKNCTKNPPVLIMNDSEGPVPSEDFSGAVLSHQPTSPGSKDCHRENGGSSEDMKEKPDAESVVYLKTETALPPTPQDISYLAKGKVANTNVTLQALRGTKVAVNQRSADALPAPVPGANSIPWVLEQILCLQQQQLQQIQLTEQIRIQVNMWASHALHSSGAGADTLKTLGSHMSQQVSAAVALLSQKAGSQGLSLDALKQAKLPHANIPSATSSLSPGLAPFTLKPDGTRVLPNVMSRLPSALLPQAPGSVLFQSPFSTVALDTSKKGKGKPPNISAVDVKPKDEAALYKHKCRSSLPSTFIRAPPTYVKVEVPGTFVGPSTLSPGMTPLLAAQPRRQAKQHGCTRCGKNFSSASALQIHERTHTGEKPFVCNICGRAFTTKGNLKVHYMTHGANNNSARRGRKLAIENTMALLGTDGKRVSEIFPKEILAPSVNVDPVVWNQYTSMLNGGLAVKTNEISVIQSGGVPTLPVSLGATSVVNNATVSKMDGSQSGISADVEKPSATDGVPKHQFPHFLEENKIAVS
| Strand | E-score |
| --- | --- |
| CCTCATGA | -0.00974 |
| ACCGTTTC | -0.182 |
| GGACTCAA | -0.134 |
| ACATCGAC | -0.072 |
| AGGAAAAG | 0.154 |
| GACACAGA | -0.0317 |
| ATTTAATA | 0.412 |
| ATGTAGGG | 0.0479 |
| GACAGCTC | -0.331 |
| AAGATAAA | 0.288 |
| CATACCAA | 0.119 |
| CCATCAAC | 0.13 |
| GATGATGA | 0.0904 |
| CTACGTGC | -0.0493 |
| TATCTGGA | 0.119 |
| GGGACAGA | -0.237 |
| ATACTGGG | -0.044 |
| AAGTCCAT | -0.0257 |
| GAGTTAAA | -0.0478 |
| AAAGCGCT | 0.184 |
| CTGAGGAA | -0.0464 |
| ATACCGAG | 0.0193 |

Set 5 — method: competition protein-binding microarray; form: double-stranded DNA, one strand shown; medium: in vitro; tested at: 2 µM; with: Pho4 competitor, 0.05 µM; reading: higher = stronger binding; constant ends, left off below: … GTCTTGATTCGCTTGACGCTGCTG
Target: Centromere-binding protein 1, full length, His-tagged (CBF1, Saccharomyces cerevisiae, UniProt P17106, residues 1-351)
Sequence of UniProt P17106 (whole entry, looked up): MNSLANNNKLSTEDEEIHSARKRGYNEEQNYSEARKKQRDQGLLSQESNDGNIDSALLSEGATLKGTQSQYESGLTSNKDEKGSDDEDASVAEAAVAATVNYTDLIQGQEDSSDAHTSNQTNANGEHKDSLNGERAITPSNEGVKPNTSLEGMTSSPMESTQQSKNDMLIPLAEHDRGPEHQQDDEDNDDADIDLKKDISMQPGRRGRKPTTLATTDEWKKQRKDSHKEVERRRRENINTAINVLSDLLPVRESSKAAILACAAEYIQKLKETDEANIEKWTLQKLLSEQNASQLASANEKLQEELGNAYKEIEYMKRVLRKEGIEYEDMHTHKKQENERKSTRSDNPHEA
Setting: whole 60-bp probe, lowest competitor level
| Strand | fluorescence intensity [a.u.] |
| --- | --- |
| TTCTTGGAAAGAACCGTCGTGGGTATAACCAGACAA | 64.9 |
| CAAAACGTTCGTTTCTGCGTGCCAGTCTTCTCCACT | 72.7 |
| ACCCTTCAAATGGCACACCTGCAGGCAGAGGCATGG | 67.8 |
| CGGGGTTAAGTTTGAGGGGTGGGTGGCTTGCAGCAG | 77.3 |
| ATTTATTTACCCCATCACGTGCAAAAATTGAACCTG | 6680 |
| GTCTTGTCTCATTGGCAGGTGGGTGTCCCCACTTCA | 78 |
| ATCTAAAAGTTGGATAACGTGCTTTGGAATTTCTGA | 241 |
| AGTTCCTGCAGGGCCCACGTGGGGATACGGAGGCCC | 453 |
| TTTACTTAGAACGACCACGTTACGATCTTTAGTTCC | 114 |
| ACTTTCTTTCTGTTCCACGTGGGTACACCACTTCAA | 817 |
| AAAAACATTTCCTGTCACATGTTAGTAAAACAGAAA | 2700 |
| CGGGGTTAAGTTTTTCACGTGATATGCTTGCAGCAG | 4510 |
| TTACTGGCGTAGACACCCGTGAAGTAGTGCAATACT | 66.1 |
| TGCGCAACAACTTGTGGTGTGGGTGTATGTCTAGAA | 69 |
| GTCTTGTCTCATTGTTCTGTGGGTGTCCCCACTTCA | 70.9 |
| TCGCCGAAACCTTGAAGCATGACAAGAATTTATAGT | 185 |
| ATACTTGAAACATTTCACGTTCCCGAAGACGTAGAC | 94.9 |
| ACCTTGGCGCATTATCATGTTTGTGATGTCATCCAG | 88.3 |
| AATATTAAAGTTCACAACGTGAAGACCTTCCTTTCT | 91.7 |
| CTTGGGGTCTAGAAGCTCGTGTTCCATTCTTAGACA | 80.7 |
| AAGGGATGGTACTATCACATGTCTCTTGTATCCGCA | 361 |
| GTCTTGTCTCATTGTCCAGTGGGTGTCCCCACTTCA | 84.4 |
| TGCGCAACAACTTGTCACGATACTTTATGTCTAGAA | 272 |
| TGCGCAACAACTTTTCACGTGATCTTATGTCTAGAA | 7320 |
| TCCCAGTAGATATCGCACGCAAAACTCAAAAGATGG | 64 |

Set 6 — method: protein-binding microarray; form: double-stranded DNA, one strand shown; medium: in vitro; tested at: not given; reading: higher = stronger binding
Target: Protein max, full length (MAX, Homo sapiens, UniProt P61244-2, residues 1-151)
Setting: k-mer, scored over probes, only values ≥0.25
| Strand | E-score |
| --- | --- |
| GCCCCGCC | 0.265 |
| CGTGGCAC | 0.416 |
| ATCAGGTG | 0.354 |
| GTGAGCAC | 0.297 |
| ACCACGTG | 0.498 |
| CATGGGCA | 0.28 |
| GCGTGGGA | 0.441 |
| ATCGTGGG | 0.273 |
| ACGTGCCC | 0.42 |
| TGCACACA | 0.273 |
| CACGCGAA | 0.361 |
| TGCCGGCA | 0.323 |
| CAATCATG | 0.313 |
| ATGTGGAA | 0.282 |

Set 7 — target: CREB3L4, bZIP domain (human); method: DHFR protein complementation; medium: yeast; relative to: wild-type JUN-FOS pair; reading: higher = stronger binding
Setting: single substitutions, most at no-binding floor
Starting sequence: JUN, bZIP domain (human); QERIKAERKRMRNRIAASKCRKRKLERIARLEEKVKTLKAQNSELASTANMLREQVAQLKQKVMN; partner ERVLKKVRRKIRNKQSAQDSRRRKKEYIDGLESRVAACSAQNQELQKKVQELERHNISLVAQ
| Variant | binding fitness [natural log] |
| --- | --- |
| Q41H | -1.54 |
| R30P | -1.4 |
| Q41W | -1.44 |
| L52W | -1.5 |
| S47M | -1.35 |
| L52Q | -1.46 |
| K39T | -1.49 |
| L59W | -1.34 |
| E33Q | -1.26 |

A few entries again (set 3):
| Variant | normalised enrichment score |
| --- | --- |
| F9G | 0.415 |
| E12S | 0.98 |
| A3W | -0.588 |
| E12G | 0.61 |
| A3Y | 0.0844 |
| K6Y | 0.669 |
| H8C | 1.77 |
